Literature values, collected from citations in different studies.
Compare with care: the assays were run in different laboratories. ± marks the error that the study gave.
ABCB1: ATP-dependent translocase ABCB1 (ABCB1, Homo sapiens, UniProt P08183)
Chain of UniProt P08183 (whole entry, looked up): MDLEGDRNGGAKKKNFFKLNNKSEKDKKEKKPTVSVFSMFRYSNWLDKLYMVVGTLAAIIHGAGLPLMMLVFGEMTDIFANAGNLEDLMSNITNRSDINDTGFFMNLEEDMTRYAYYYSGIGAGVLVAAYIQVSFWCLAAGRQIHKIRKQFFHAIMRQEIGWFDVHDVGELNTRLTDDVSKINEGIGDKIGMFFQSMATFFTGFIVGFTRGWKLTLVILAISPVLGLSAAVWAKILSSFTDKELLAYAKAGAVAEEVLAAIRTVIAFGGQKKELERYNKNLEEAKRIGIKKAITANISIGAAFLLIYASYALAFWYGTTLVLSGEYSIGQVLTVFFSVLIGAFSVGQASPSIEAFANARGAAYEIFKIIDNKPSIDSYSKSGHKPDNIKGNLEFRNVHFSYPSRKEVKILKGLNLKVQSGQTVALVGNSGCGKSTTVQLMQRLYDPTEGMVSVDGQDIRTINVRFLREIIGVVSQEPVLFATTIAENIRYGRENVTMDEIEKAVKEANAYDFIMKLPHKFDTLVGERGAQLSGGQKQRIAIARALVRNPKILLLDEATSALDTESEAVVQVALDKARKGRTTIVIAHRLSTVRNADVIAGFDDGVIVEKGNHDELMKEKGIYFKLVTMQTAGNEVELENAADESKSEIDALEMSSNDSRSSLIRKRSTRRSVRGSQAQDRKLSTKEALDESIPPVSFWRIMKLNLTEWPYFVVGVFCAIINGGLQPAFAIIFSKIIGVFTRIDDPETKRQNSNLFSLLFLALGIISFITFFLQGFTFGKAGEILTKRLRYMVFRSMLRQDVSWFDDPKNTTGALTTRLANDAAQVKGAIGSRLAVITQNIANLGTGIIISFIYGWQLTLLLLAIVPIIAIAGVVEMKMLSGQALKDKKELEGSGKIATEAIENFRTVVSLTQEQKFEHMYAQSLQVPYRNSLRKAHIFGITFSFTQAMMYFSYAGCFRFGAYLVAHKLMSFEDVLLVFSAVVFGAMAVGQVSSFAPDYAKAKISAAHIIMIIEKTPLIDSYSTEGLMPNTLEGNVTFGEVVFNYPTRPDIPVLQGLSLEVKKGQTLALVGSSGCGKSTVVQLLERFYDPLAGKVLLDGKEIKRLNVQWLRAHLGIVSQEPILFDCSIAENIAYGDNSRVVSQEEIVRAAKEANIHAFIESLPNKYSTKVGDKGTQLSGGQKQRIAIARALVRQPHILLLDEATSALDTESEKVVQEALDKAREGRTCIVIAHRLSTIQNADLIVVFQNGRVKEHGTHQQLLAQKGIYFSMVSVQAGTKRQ
Chain of UniProt P08684 (whole entry, looked up): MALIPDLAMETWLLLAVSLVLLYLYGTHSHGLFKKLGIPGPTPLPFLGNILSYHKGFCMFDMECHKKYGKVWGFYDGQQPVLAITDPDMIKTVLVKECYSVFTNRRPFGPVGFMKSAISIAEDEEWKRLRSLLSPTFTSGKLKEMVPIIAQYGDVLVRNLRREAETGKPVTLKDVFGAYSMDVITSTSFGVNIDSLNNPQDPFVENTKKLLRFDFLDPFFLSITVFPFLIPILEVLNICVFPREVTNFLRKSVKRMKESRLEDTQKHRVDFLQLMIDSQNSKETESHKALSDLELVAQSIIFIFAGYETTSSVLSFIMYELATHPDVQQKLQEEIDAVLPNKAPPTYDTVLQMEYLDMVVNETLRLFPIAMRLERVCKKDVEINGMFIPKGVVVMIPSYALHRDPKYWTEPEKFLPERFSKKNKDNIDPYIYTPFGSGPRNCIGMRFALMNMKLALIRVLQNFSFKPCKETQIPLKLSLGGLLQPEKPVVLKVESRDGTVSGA

For `CC(=O)O[C@H]1C2=C(C(=O)C(OC(=O)c3ccccc3)=C(C(C)C)C2=O)[C@@]2(C)CCCC(C)(C)[C@@H]2[C@@H]1OC(=O)c1ccccc1`, the GI50 was at most 5 µM (MEL1).
The kinact of `CCCCc1oc2ccccc2c1C(=O)c1cc(I)c(OCCNCC)c(I)c1` is reported as about 0.1 min⁻¹ (CYP2C9; mechanism-based inhibitor; with: diclofenac).
`C[C@@H](c1cc(-c2ccc(OC(F)(F)F)cc2)no1)[C@](O)(Cn1cnnn1)c1ccc(F)cc1F` — result for inhibition: “no inhibition” (CYP1A2; inhibitor; concentration not given).
With `CN1CCN(c2cc(-c3ccccc3CO)c(N(C)C(=O)C(C)(C)c3cc(C(F)(F)F)cc(C(F)(F)F)c3)cn2)CC1` the AUC(0-inf) was 8090 ng·h/mL (healthy volunteers, plasma; oral, 450 mg, single dose, given alone).
With `CC(=O)N1CCC(NC(=O)NC23CC4CC(C)(CC(C2)c2ccccc24)C3)CC1` the inhibition was 8 ± 3% (Cytochrome P450 3A4 (CYP3A4, Homo sapiens, UniProt P08684); enzyme activity, inhibitor; 10 µM, with: DBF substrate).
`CN1CCC(C)(C)c2cc3c(-c4ccc(C(=S)N5CCCCC5)s4)c4ccc(=[N+](C)C)cc-4sc3cc21` — result for “cellular dye accumulation ratio”: 1.8 (ABCB1; item: cell-associated dye; baseline: with over without P-gp inhibitor).
`Nc1nc2c(ncn2[C@@H]2O[C@@H]3COP(=O)(O)O[C@H]4[C@@H](F)[C@H](n5cnc6c(N)ncnc65)O[C@@H]4CSP(=O)(O)O[C@@H]2[C@@H]3O)c(=O)[nH]1`: stability “stable” (ENPP1).
The cell-associated fraction of `CN1CCC(C)(C)c2cc3c(-c4ccc(C(=O)N5CCCCC5)s4)c4ccc(=[N+](C)C)cc-4sc3cc21` is reported as 8.6 ± 0.1% (ABCB1; substrate; no inhibitor).
The IC50 of `O=C(O)c1cc2cc(O)ccc2n1Cc1ccc(Cl)c(C(F)(F)F)c1` is reported as 130 µM (rat BSEP; bile acid transport).
The inhibition of `COc1ccc(Nc2nccc(-c3c[nH]nc3-c3cccnc3)n2)cc1` is reported as 71% (Cytochrome P450 3A4 (CYP3A4, Homo sapiens, UniProt P08684); 10 µM).
With `Cc1ccccc1-c1cc(N2CCNCC2)ncc1N(C)C(=O)C(C)(C)c1cc(C(F)(F)F)cc(C(F)(F)F)c1` the Cmax was 43.7 ng/mL (healthy volunteers, plasma; oral, dose not given, netupitant-palonosetron, fasted).
For `COCCOCCOCCOCCC(=O)NCc1cc(CNC(=O)CCOCCOCCOCCOC)cc(-c2cc3cc4nc(c(OC)c5[nH]c(cc6nc(cc2[nH]3)CC6(C)C)cc5-c2cc(CNC(=O)CCOCCOCCOCCOC)cc(CNC(=O)CCOCCOCCOCCOC)c2)CC4(C)C)c1`, “internal conversion yield” read 0.44 (PBS; room temperature).
`O=C1C=C2CN(C(C(=O)C3CC3)c3ccccc3F)CCC2S1` (stereo not drawn) — result for “contribution to bioactivation”: 38 to 70% (CYP3A4; item: prasugrel active metabolite; in vitro; concentration not given).
`CC(C)C1=C(O)C(=O)C2=C(C1=O)[C@H](O)[C@@H](O)[C@H]1C(C)(C)CCC[C@]21C` gave a GI50 of over 30 µM (TK-10; cell growth).
For `CC#N.Cc1ccc(O)c(CN(CCN(Cc2ccccn2)Cc2ccccn2)Cc2ccccn2)c1.[Mn+2]`, the pKa was 6.16 (Mn(II) complex, metal-bound phenol; 25 °C).
For `Cc1[nH]nc2c1N=C(c1ccccc1Cl)c1cnc(N3CCOCC3)cc1N2`, “contribution to metabolism” read 20% (CYP2C8; substrate, chemical inhibition).
`O=C(N1CCC(C(c2ccc3c(c2)OCO3)c2ccc3c(c2)OCO3)CC1)n1cncn1` [carbon-11 labelled] has a brain uptake of about 0.8 SUV (MAGL; rat, brain).
The IC50 of `COc1ccc2cc(C(=O)/C=C/c3cccnc3)ccc2c1` is reported as 0.004 µM (CYP1B1).

Excerpt of the above:
For `CC#N.Cc1ccc(O)c(CN(CCN(Cc2ccccn2)Cc2ccccn2)Cc2ccccn2)c1.[Mn+2]`, the pKa was 6.16 (Mn(II) complex, metal-bound phenol; 25 °C).
For `Cc1[nH]nc2c1N=C(c1ccccc1Cl)c1cnc(N3CCOCC3)cc1N2`, “contribution to metabolism” read 20% (CYP2C8; substrate, chemical inhibition).
